Assay results from different studies.
Each numbered part is a random draw from the data of one study; scales do not carry over between parts.

Sample 1 — technique: protein-binding microarray; molecule type: double-stranded DNA, one strand shown; medium: in vitro; concentration: 0.8 µM; notes: whole 60-bp probe, no competitor; direction: higher = stronger binding; shared flanks, not repeated: … GTCTTGATTCGCTTGACGCTGCTG
Target: Centromere-binding protein 1, full length, N-terminal tag (CBF1, Saccharomyces cerevisiae, UniProt P17106, residues 1-351)
Sequence of UniProt P17106 (whole entry, looked up): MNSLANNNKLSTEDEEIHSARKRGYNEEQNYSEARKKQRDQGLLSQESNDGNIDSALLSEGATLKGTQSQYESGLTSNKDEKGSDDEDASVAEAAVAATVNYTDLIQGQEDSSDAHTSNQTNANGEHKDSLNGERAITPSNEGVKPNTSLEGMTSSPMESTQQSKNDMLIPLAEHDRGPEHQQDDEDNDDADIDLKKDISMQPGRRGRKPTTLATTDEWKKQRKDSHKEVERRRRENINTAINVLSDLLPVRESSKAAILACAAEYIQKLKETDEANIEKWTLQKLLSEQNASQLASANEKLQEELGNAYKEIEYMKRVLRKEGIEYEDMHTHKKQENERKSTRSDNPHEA
Sequence	fluorescence intensity [a.u.]
GAAACGACTTGAACTTACGTGATTATATGTATATAG	545
CCTAACTACTATAGTGGTCGGAAATAGCTTCGTACA	486
GAATGGAAGAGAAGTCACATTCGTGAAAGGCACTAG	567
CCTAACTACTATATCATCGTGTGATAGCTTCGTACA	556
TGTACGAAGCTATACGTGATGAATATAGTAGTTAGG	597
CTATTAGTTTTTCATGTGGTAAAGGCAATGCCATTC	547
GAAAAAAGATACATCGTGGTGATGAAGAAGAGATAG	555
GAAGAAGGAACATAACACGTTACTATTTGTCTATAG	626
CTATAATCTTTTCATGTGAGTAGTTTAGATAAATTC	723
CTACAAGAAATGAGAAACGTGGGAGATGTTCAATTC	554
TGTACGAAGCTATACGTGGTTTTTATAGTAGTTAGG	543

Sample 2 — technique: universal PBM; molecule type: double-stranded DNA, one strand shown; medium: in vitro; concentration: 600 nM; direction: higher = stronger binding
Target: Sal-like protein 4, full length isoform A (SALL4, Homo sapiens, UniProt Q9UJQ4, residues 1-1053)
Sequence of UniProt Q9UJQ4 (whole entry, looked up): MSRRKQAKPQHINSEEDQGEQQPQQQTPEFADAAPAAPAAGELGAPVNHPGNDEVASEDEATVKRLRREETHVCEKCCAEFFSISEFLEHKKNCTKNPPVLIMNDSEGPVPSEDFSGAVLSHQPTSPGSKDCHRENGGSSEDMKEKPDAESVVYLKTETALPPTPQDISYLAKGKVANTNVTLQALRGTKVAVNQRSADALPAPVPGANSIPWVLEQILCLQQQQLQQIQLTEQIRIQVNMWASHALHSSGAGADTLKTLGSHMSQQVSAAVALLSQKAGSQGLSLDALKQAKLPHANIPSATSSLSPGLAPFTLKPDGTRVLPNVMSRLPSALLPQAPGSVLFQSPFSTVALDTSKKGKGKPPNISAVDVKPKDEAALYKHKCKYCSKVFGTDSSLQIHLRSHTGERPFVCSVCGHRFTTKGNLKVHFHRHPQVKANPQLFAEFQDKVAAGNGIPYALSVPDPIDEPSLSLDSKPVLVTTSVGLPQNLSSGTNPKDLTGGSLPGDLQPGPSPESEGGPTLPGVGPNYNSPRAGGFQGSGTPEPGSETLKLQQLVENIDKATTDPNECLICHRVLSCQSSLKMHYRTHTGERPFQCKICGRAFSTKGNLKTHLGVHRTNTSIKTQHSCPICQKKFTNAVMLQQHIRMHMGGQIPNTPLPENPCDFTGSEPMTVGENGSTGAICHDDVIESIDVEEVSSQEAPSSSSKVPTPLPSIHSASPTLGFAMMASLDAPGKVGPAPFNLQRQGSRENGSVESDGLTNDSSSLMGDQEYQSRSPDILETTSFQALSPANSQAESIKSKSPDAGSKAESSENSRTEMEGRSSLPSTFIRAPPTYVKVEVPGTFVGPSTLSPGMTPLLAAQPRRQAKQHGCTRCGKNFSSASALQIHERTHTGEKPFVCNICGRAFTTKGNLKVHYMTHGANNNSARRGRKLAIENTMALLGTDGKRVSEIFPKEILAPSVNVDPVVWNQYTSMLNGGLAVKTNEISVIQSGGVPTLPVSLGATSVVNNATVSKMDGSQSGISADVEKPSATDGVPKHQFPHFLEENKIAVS
Notes: 8-mer, flanks averaged, mean of replicates
Sequence	E-score
ATTATGTA	0.347
CTACTGCC	-0.152
GGACGGTA	0.0663
AAAAGTGC	0.0828
ACTCGGGA	-0.133
CCGTGGCG	-0.328
GTATCCGA	-0.112
TAACCGCA	0.052
AGCCTGCG	-0.28
AGTAAGAG	0.0275
GGAGGAGA	-0.159
TGGGCGAA	-0.0952

Sample 3 — technique: protein-binding microarray; molecule type: double-stranded DNA, one strand shown; medium: in vitro; concentration: 250 nM; notes: 60-bp whole probe; added: salmon DNA 0.4 mg/ml; relative to: random background probes; direction: higher = stronger binding; shared flanks, not repeated: GCCTAGCAC … GTCTTGATTCGCTTGACGCTGCTG
Target: Interferon regulatory factor 5, full length, phosphomimetic (IRF5, Homo sapiens, UniProt Q13568-2, residues 1-514, K96S/S451D/S453D/S456D/S462D)
Sequence	log fluorescence [z-score]
GACGGTTCCGGTTTCGGGGCGTGCTAG	3.78
ATATATATTATATATTTATGTGTGCTA	1.18
GACGGTTTCGGAACTGGGGACGTGCTA	5.01
TCAAGTCCCAAGAATGGTACTGTGCTA	-0.0972
TTAGGTCTCCTAGTGCTTTAGTGCTAG	-0.625
TTAGGTTTCGTCTTTCGGTTAGTGCTA	9.68
GACGATGTCAGACTGGAGACGTGCTAG	-0.338
TTAGATATCAGTTTCAATTAGTGCTAG	4.51

Other studies, line by line
Substance	target	test	system	setting	how to read	quantity	value
PhoQ, residues 284 288 289 292 302 303 AQGLTV	PhoP, residues 12 14 15 18 19 TPLRH (Escherichia coli, UniProt P23836)	Sort-seq, item: YFP reporter	E. coli	PhoQ-PhoP variant library, added: 10 µM Mg2+	relative to: high Mg2+ state, higher = stronger signaling	fold induction	0.743

A few entries again (sample 1):
Sequence	fluorescence intensity [a.u.]
TGTACGAAGCTATACGTGATGAATATAGTAGTTAGG	597
GAAGAAGGAACATAACACGTTACTATTTGTCTATAG	626
CTATAATCTTTTCATGTGAGTAGTTTAGATAAATTC	723
